Results collected from several papers.
Every numbered part comes from another study and shows a few of its results, in no order. Changes are numbered by the printed parent chain.

Series 1 — method: DHFR PCA, deep sequencing; sample: yeast; with: (+)-ABA 4.8 µM; baseline: wild-type fitted maximum; direction: higher = stronger binding
Target: ABI1, truncated, D143A, DHFR fusion (Arabidopsis thaliana)
Setting: methotrexate growth selection, single substitutions
Starting sequence: PYL1, truncated, DHFR fusion (Arabidopsis thaliana); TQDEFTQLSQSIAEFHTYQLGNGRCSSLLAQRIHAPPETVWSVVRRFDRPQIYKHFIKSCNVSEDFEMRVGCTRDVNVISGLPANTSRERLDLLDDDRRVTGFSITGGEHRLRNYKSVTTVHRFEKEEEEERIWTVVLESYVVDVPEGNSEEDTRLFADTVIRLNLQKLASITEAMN
Change | relative binding score [%]
H122S | 5.24
D159R | -7.46
E4I | 79.5
N22W | 55.5
P146H | -1.46
I52G | 37.5
A158D | -5.9
H110S | 17.1
V43E | -4.9
S9N | 69.5
E131V | 69.4
A175E | 73.5
N114C | 6.41
R88C | 68.4
T1A | 72.1
L112I | -18.4
F66P | 22.1

Series 2 — method: protein-binding microarray; form: double-stranded DNA, one strand shown; sample: in vitro; tested at: 2540 nM top; setting: 60-bp whole probe; with: salmon DNA 0.4 mg/ml; baseline: random background probes; direction: higher = stronger binding; shared flanks, not repeated: GCCTAGCAC … GTCTTGATTCGCTTGACGCTGCTG
Target: Interferon regulatory factor 3, full length, phosphomimetic (IRF3, Homo sapiens, UniProt Q14653, residues 1-427, S386D/S396D/S398D/S402D/T404D/S405D)
Construct (chain): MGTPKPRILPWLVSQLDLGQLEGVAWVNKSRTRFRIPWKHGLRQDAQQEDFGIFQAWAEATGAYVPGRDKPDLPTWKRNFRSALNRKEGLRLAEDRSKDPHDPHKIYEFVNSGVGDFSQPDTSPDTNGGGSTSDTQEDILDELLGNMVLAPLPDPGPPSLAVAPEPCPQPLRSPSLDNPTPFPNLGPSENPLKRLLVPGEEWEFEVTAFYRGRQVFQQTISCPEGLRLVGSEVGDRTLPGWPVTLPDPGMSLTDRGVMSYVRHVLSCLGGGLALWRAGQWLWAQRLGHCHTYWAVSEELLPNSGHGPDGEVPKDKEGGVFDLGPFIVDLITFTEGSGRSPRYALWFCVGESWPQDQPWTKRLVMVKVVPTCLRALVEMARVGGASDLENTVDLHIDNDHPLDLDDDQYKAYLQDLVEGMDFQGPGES
Strand | fitted relative affinity [z-score]
TTTGATTTCGGGTATCGATTAGTGCTA | 1.91
GACGATATCGGTTTCGGGACGTGCTAG | 4.78
GACGATTTCAGTTTCGAGTCGTGCTAG | 5.45
GACGGTTTCGACTATCTGGACGTGCTA | 2.85
GACGGTCTCCTTCTCATGACGTGCTAG | 4.08
GCCGGTCTCCTACTGCTGACGTGCTAG | 2.14
CAAGTGATGTAGCTGGGAGCGTGCTAG | -0.498
TCATGTTTCCTTCCTCTACTGTGCTAG | 5.47
GACGATTCCCGTTTCGAGACGTGCTAG | 2.68
GACGGTTTCCTTATCCAGACGTGCTAG | 8.44
GACGGTACCGACACTGGGGACGTGCTA | 0.0872
TCAGTTTCCATTTTCTGACTGTGCTAG | 10.7
TTAGGTTTCCTTATCCTGTAGTGCTAG | 8.17
TATTTTGGAAACTCACAACAGTGCTAG | 1.54
CTCTACATGTGTTTAAAAAGGTGCTAG | 0.0972
TTAGGTTCCCTTTTCCTGTAGTGCTAG | 7.01
TTAGGTTTCGGTTCCGGTTGGTGCTAG | 10.8
GACGATTTCGCGACTGGAGACGTGCTA | 0.559
GACGGTACCGGTCTCGGGACGTGCTAG | 1.78

Series 3 — method: RNA Bind-n-Seq; form: RNA; sample: in vitro; tested at: not given; setting: RNA with constant flanks, ends assumed; baseline: input RNA pool; direction: higher = stronger binding
Target: RING finger protein unkempt homolog, zinc fingers 1-6, GST-SBP tag (UNK, Homo sapiens, UniProt Q9C0B0, residues 30-357)
Chain of UniProt Q9C0B0 (30-357, looked up): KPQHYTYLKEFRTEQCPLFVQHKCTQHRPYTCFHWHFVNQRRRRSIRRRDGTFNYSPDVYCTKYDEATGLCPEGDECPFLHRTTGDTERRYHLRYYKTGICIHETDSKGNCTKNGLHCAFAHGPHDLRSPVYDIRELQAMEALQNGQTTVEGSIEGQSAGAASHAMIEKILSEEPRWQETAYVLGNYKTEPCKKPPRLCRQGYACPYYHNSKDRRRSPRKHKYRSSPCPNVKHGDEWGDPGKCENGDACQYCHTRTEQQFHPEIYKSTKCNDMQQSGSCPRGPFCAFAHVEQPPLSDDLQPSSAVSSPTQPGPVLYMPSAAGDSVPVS
Shared flanks, not repeated: GGGAGUUCUACAGUCCGACGAUC … CAACAGAGGAUUGAGCAUCA
Strand | bound/input enrichment
GAAAUUUCCUUGUAUAUCCCCAAAAUGCUAACUGAAGAACGCCAUCUUCAUGAACUUGACACCGUGCCUCCUUUACCUUUUUUUCCUAAGGCUCACACCGAAACCUCCAGGGCCAAGUGA | 0.373 ratio
UUUUUUCAGUUUAUAUUAAUCUACUGUAUCAAUAAAAUUCUGUAAUUUGAAUGGGCUUUUAACCGUCCCGAAUGUUAUUGUGUAUAGAUAUUACUUCUUGAACAUUAUGUUCAGAAAUGC | 1.97 ratio
UUUUUUUUUUCUGUGUAAAUCAUCAACUAUAAGAAGAAACUAUGGGACUCUAAGCCUGGCUUCCGAGAAUUUACAGUGGACAAAUAGGUUUCAUCAAACCAGUUUUUAAUCAUUCUGACU | 0.26 ratio
UUACGUGUUGGUGCUGAUAAUCAUGUGCUACCCUUGGACUGUGUUACUCUUCAGACAUUUUCCGCUAAGUGUUUGGGACCUUUUGAUGAAUGGGAAAGCAGACUUAGGGUUGCAAAAGAA | 0.212 ratio
UGACUUUGCGUAGGCUUGCGGGUGUCCAGGCCGCCUAGGCUGGAGAGAAAGCCAGCCGAAACCGAUAUGAUUGUAGGAAAAGACCGGGAAGGUUUCUUUACCAACGGUUUGACUCUUGGA | 0.165 ratio
AAGAGUGCAGACGACUUUAUAGAUAAGCACAUUGCUGAAUUAAUAUUUUACAUGGAAGAACUCCGAGCACAUGUGAGGAAAUACGGACCUGUAAUGCAGAGGUAUUACGUGCAGUACCUU | 0.631 ratio
UGCUUUACUGGAAAGACCCAGAAUAUGCCAAGUAUCUAAAGUACCCUCAGUGUUUACACAUGUCCGAGCUGCUCCAAUAUGAACACUUCCGAAAGGAGCUGGUGAAUGCUCAGUGUGCGA | 0.117 ratio
GACAUUUGGACAUUACUGGGGACGGUGCUUUAUCCAUUCCUGGCCAUAUGGAGAUUAAUCCGCAAUUUUUUAUUUAGCAAUCCUCCUCCUGCACAGACUUCAGCAAGAGCCACAUCCACA | 1.74 ratio

Series 4 — method: RNA Bind-n-Seq; form: RNA; sample: in vitro; tested at: 200 nM; setting: whole 134-nt RNA, ends assumed; with: 150 mM KCl; baseline: input library; direction: higher = stronger binding
Target: Ras GTPase-activating protein-binding protein 1, full length (G3BP1, Homo sapiens, UniProt Q13283)
Chain of UniProt Q13283 (whole entry, looked up): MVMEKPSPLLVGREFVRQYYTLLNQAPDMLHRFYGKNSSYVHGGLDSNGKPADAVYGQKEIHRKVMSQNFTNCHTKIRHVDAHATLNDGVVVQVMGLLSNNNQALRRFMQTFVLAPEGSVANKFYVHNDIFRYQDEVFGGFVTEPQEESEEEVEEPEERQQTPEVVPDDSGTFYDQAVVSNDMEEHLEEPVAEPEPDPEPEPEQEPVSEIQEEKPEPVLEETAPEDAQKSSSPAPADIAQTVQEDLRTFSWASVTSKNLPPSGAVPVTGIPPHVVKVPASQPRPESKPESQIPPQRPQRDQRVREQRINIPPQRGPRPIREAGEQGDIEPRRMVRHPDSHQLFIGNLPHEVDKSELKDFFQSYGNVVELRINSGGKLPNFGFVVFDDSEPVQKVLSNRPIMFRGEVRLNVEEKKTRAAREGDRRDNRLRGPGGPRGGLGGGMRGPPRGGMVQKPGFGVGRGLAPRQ
Shared flanks, not repeated: GGGAGUUCUACAGUCCGACGAUC … UGGAAUUCUCGGGUGUCAAGG
Strand | log2 enrichment
GCAGGAAGUAAAAACAAAUGGAAAUGCUUCGGAUAGUGGCAGGGGUGGGGGUUGCUAAGGAAAGGGGGGGAUGGGAGUGGGUAAAGAGUU | 0.874
AAGUCCUGUGCUACACAUCGUAUGUACCGAAUCGGGAGGGAAAAAGGGUUUUUGGGAAAGUAUUAUGUUACGCCGUUCGGAUCUGCACUU | 0.124
UCAAGUCCUGUGCUACACAUCGUAUGUACCGAAUCGGGUGGGUUUUUGGGUGGGAAAGUAUUAUGUUACGCCGUUCGGAUCUGCACUUCC | 0.306
GCAGGAAGUAAAAACAAAUGGAAAUGCUUCGGAUAGUGGCAGGGGUGGGGGUUGCUAAGGAAAGGGUGGGAUGGGAUUGGGUAAAGAGUU | 1.13
UGGGAGGUGGAUUUUGUUUAUUUUCUUAGCUCAUUUCCAGGGGUGGGAAUUUUUUUUUAAUAUGUGUCAUGAAUAAAGUUGUUUUUGAAA | 0.161
UUAAGUUGAAGGAGCGCUACCGCAACGUGCUGGACACCAUGUUCGAGCUGCUGCCCCGGAUGGCCAGGUACUGCCAGCCCCCACCCUGGC | -0.29
AAGUCCUGUGCUACACAUCGUAUGUACCGAAUCGGGUUUGGGAAAGGGAAAAAGGGAAAGUAUUAUGUUACGCCGUUCGGAUCUGCACUU | 0.238
UGGCCCUGGUGGCAUGCGGGGAGGAAGAGGUGGCCUCAUGGAUCGUGGUGGUCCCGGUGGAACGUUCAGAGGUGGCCGUGGUGGAGACAG | 0.145
ACCAUGCAGGUGGGUAUCUUUGGGAAGUGGGGCAAGGGGGGGAUAGGGAGGGGGGUAACACUUUGGGAACAGGUGGUCCCAGGUCGUUUC | 1.04

Excerpt of the above (series 1):
Change | relative binding score [%]
D159R | -7.46
L112I | -18.4
S9N | 69.5
A158D | -5.9
T1A | 72.1
N22W | 55.5
